# Assay results pooled from the literature.
# Each line is one published result; not all experiments were run side by side. ± gives the spread as reported.
SMILES,organism,assay,system,conditions,scale,quantity,value
C=C(C)[C@@H]1CC[C@]2(CNCCN3CCN(Cc4ccccc4)CC3)CC[C@]3(C)[C@H](CC[C@@H]4[C@@]5(C)CC[C@H](OC(=O)CC(C)(C)C(=O)O)C(C)(C)[C@@H]5CC[C@]43C)[C@@H]12,human immunodeficiency virus 1,western blot,"HEK293T transfected, subtype B NL4-3, virion lysates",100 nM,relative to: total CA,CA-SP1 accumulation,70 to 75%
CC(C)C(C(=O)Nc1ccc(C(=O)NO)cc1)c1ccccc1 (centres unmarked),Lucilia cuprina,larval growth,,,"relative to: diflubenzuron and dicyclanil, fold less potent",potency ratio,50 to 100 fold
Nc1ncnc2c1ccn2[C@@H]1O[C@H](CO)C[C@H]1O,Trypanosoma vivax,"parasite growth, resazurin",,24 h,,EC50,3.48 µM
COc1ccc(-c2nc(-c3ccccc3OC)[nH]c2-c2ccc(OC)cc2)cc1,Schistosoma mansoni,worm killing,female worms,,no effect,EC50,> 100 µM
Oc1c(Cl)cc(Cl)c2cccnc12,Shewanella putrefaciens,agar dilution,ATCC 8071,,,MIC,37.4 µM
[NH-]c1c([I+]c2ccccc2)c(=O)oc2ccccc12,dengue virus 2,cytopathic effect,BHK-21,concentration not given,,inhibition,≤ 12%
CC[C@@H](C)[C@@H](NC(=O)[C@@H](C)NC(=O)[C@@H](CCCCN)NC(=O)[C@@H](CC(C)C)NC(=O)[C@@H](C)NC(=O)[C@H](NC(=O)[C@@H](CCCCN)NC(=O)[C@@H](CC(C)C)NC(=O)[C@H](NC(=O)[C@@H](CCCCN)NC(=O)[C@@H](CCCCN)NC(=O)[C@@H](CCCCN)NC(=O)[C@@H](C)NC(=O)[C@@H](CCCCN)NC(=O)[C@@H](CO)NC(=O)[C@@H](Cc1ccccc1)NC(=O)[C@H](NC(=O)[C@@H](CCCCN)NC(=O)[C@@H](CC(C)C)NC(=O)[C@@H](Cc1ccccc1)NC(=O)[C@@H](CO)NC(=O)[C@@H](CCCCN)NC(=O)[C@@H](Cc1c[nH]c2ccccc12)NC(=O)[C@@H](CCCCN)NC(C)=O)[C@H](C)O)C(C)C)[C@H](C)O)C(=O)N[C@H](CO)C(=O)N[C@H](CCCCN)C(N)=O,Acinetobacter baumannii,,"821, Mueller-Hinton broth","24 h, 37 °C",,MIC,0.7 µM
Nc1ncnc2c1c(F)cn2[C@@H]1O[C@H](CO)C[C@H]1O,Trypanosoma vivax,"parasite growth, resazurin",,24 h,,EC50,0.5 µM
CCOC(=O)C1=C(C)NC2=C(C(=O)CC(C)(C)C2)C1c1ccc(OCC(=O)NN=Cc2cccc([N+](=O)[O-])c2)cc1OCC(=O)NN=Cc1cccc([N+](=O)[O-])c1 (centres unmarked),Listeria monocytogenes,,NCTC 5348,"concentration not given, 24 h, 37 °C",,inhibition zone diameter,8.1 ± 0.6 mm
CC(C)Oc1ncnc2c1c(Cl)cn2[C@@H]1O[C@H](CO)[C@@H](O)[C@H]1O,Trypanosoma vivax,"parasite growth, resazurin",,24 h,,EC50,0.12 µM
CC(C)Oc1cccc(NC(=O)CCCN2C(=O)c3ccccc3C2=O)c1,Arabidopsis thaliana,"qRT-PCR, item: AtGH3.3 and IAA19",,"concentration not given, up to 30 min",,mRNA level,increased
CCCCCCCCCC(=O)N[C@@H](Cc1c[nH]c2ccccc12)C(=O)N[C@H](CC(N)=O)C(=O)N[C@@H](CC(=O)O)C(=O)N[C@@H]1C(=O)NCC(=O)N[C@@H](CCCNC(=O)OC2/C=C/CCCCC2)C(=O)N[C@@H](CC(=O)O)C(=O)N[C@H](C)C(=O)N[C@@H](CC(=O)O)C(=O)NCC(=O)N[C@H](CO)C(=O)N[C@@H]([C@H](C)CC(=O)O)C(=O)N[C@@H](CC(=O)c2ccccc2N)C(=O)O[C@@H]1C (some centres unmarked),Staphylococcus aureus,,MRSA,concentration not given,relative to: UG gel over TAG gel,activity improvement,67%
Brc1ccc(-c2c[nH]c(-c3ccccn3)n2)cc1,Schistosoma mansoni,egg laying,worm couples,,,lowest concentration reducing egg number,5 µM
CCCC(CCC)C(=O)NO,Lucilia cuprina,larval weight gain,"LS strain, larvae on impregnated cotton wool",24 h,,IC50,> 1000 µg
CNc1cc(C(=O)Nc2ccc(Cl)cc2)ccc1OC,duck hepatitis B virus,"viral replication, qPCR",DHBV-infected Pekin ducklings,"oral, 25 mg/kg, day 14",,serum DHBV DNA,inhibited
O=c1c2ccccc2sn1-c1cc(Br)cc(Br)c1,Aspergillus flavus,"growth, broth dilution",ATCC MYA-3631,MIC-0,,MIC,12.5 µg/mL
CC(C)C[C@H](NC(=O)[C@H](C)N)C(=O)N[C@H](Cc1ccccc1)C(=O)NCCC(=O)O,Lolium multiflorum,herbicide,agar,"67 µg/mL, 12 d",,leaf development,inactive
O=C(/C=C/c1ccccc1)N[C@@H](CCCCCC(=O)NO)C(=O)Nc1cccc2cccnc12,Lucilia cuprina,pupation,"LS strain, larvae on impregnated cotton wool",216 h,,IC50,20 µg
CCc1cccc2c(C(=O)COC(=O)C34CC5CC(CC(Br)(C5)C3)C4)c[nH]c12,Arabidopsis thaliana,"qRT-PCR, item: BRC1",seedlings 10 days old,"20 µM, 24 h, added: (+)-GR24 1 µM",relative to: GR24 alone,mRNA level,decreased
c1ccc(-c2nc(-c3ccc4ccccc4c3)c[nH]2)cc1,Schistosoma mansoni,,female worms,25 µM,,worm killing,0%
C[C@@H](O)[C@H](NC(=O)c1ccc(C#Cc2ccc(CN3CCOCC3)cc2)cc1)C(=O)NO,Enterobacter spp,,,,,MIC90,0.5 µg/mL
O=c1[nH]cc(C(c2cccc(Cl)c2)c2c[nH]c(=O)[nH]c2=O)c(=O)[nH]1,HIV-1 subtype C,"viral replication, item: p24",,,,IC50,62.5 µg/mL
COc1cc(/C=C/C(=O)N[C@@H](CCCCCC(=O)NO)C(=O)Nc2cccc3cccnc23)cc(OC)c1O,Lucilia cuprina,larval weight gain,"LS strain, larvae on impregnated cotton wool",24 h,,IC50,> 1000 µg
C=C(C)[C@@H]1CC[C@]2(CNCCN3CCS(=O)(=O)CC3)CC[C@]3(C)[C@H](CC[C@@H]4[C@@]5(C)CC[C@H](OC(=O)CC(C)(C)C(=O)O)C(C)(C)[C@@H]5CC[C@]43C)[C@@H]12,human immunodeficiency virus 1,western blot,"HEK293T transfected, subtype B NL4-3, virion lysates",100 nM,relative to: total CA,CA-SP1 accumulation,70 to 75%
CC(=O)[O-].O.[Cu+2].[O-]c1ccc(Br)cc1C=NCCN1CCOCC1,Chromobacterium violaceum,,,20 µL of 100 µM per disc,,inhibition zone diameter,14 mm
CN(C)c1ccc(C(=O)NCCCCCCC(=O)NO)cc1,Lucilia cuprina,larval weight gain,"LS strain, larvae on impregnated cotton wool",24 h,,IC50,490 µg
CC1(C)Cc2sc(NC(=O)Cc3ccc(S(N)(=O)=O)cc3)c(C#N)c2CN1CC1CCCCC1,dengue virus 2,viral replication,"Huh-7, NGC-Nluc",48 h,,EC50,0.00539 µM
COC1C=COC2(C)Oc3c(C)c(O)c4c(c3C2=O)C2=NC3(CCN(CC(C)C)CC3)NC2=C(NC(=O)C(C)=CC=CC(C)C(O)C(C)C(O)C(C)C(OC(=O)Nc2cnccn2)C1C)C4=O (centres unmarked),Mycobacteroides abscessus,,"subsp. abscessus ATCC 19977, GM-CSF knockout mouse, acute infection, lung","oral, 25 mg/kg daily, 7 doses",relative to: start of treatment,lung CFU reduction,> 2 log CFU
Nc1ncnc2c1ccn2[C@H]1C[C@H](O)[C@@H](CO)O1,Trypanosoma vivax,"parasite growth, resazurin",,24 h,,EC50,> 64 µM
CC1=CC[C@@H]2C[C@H]1C2(C)C,Mythimna separata,"olfactory preference, Y-tube olfactometer",,males,relative to: liquid paraffin control,choice of control,67%
CC1(CCCCCCCCCCCCOCCCOP(=O)(O)CO[C@H](CO)Cn2ccc(N)nc2=O)COC1,human adenovirus 5,cytopathic effect,Adenoid 75,,relative to: CC50 over EC50,selectivity index,> 152
N#Cc1ccc2cccc(O)c2n1,Achromobacter xylosoxidans,agar dilution,ATCC 27061,,,MIC,> 1500 µM
CC1COCCN1c1nc(NCc2cccnc2C(F)(F)F)c2cccnc2n1 (centres unmarked),Brugia malayi,,,"up to 5 µM, microfilariae",,viability and motility,no effect
O=c1[nH]cc(C(c2ccc(C(F)(F)F)cc2)c2c[nH]c(=O)[nH]c2=O)c(=O)[nH]1,HIV-1 subtype C,item: p24,,concentration not given,,antiviral activity,inactive
C=CCSSC,Bradysia odoriphaga,,female antennae,"10 µg/µL, 12 h after emergence, after OBP10 RNAi",relative to: dsGFP-injected control,electroantennogram response,decreased
O=C(CCCCCCNC(=O)c1cnc(N(c2ccccc2)c2ccccc2)nc1)NO,Lucilia cuprina,larval weight gain,"LS strain, larvae on impregnated cotton wool",24 h,,IC50,> 1000 µg
O=c1[nH]cc(C(c2ccccc2Br)c2c[nH]c(=O)[nH]c2=O)c(=O)[nH]1,HIV-1 subtype C,"viral replication, item: p24",,,,IC50,112 µg/mL
CC1(CCCCCCCCCCOCCCOP(=O)(O)CO[C@H](CO)Cn2ccc(N)nc2=O)COC1,human adenovirus 5,cytopathic effect,Adenoid 75,,relative to: CC50 over EC50,selectivity index,> 5
CC(C)(C)OC(=O)Nc1ccc(-c2cc(C(=O)NCCCCCCC(=O)NO)no2)cc1,Lucilia cuprina,larval weight gain,"LS strain, larvae on impregnated cotton wool",24 h,,IC50,> 1000 µg
CC[C@@H](C)[C@@H](NC(=O)[C@@H](C)N)C(=O)N[C@H](CCCCN)C(=O)N[C@@H](C(=O)N[C@H](CCCNC(=N)N)C(=O)N[C@H](CCCCN)C(=O)N[C@H](CC(C)C)C(=O)N[C@H](Cc1ccccc1)C(=O)N[C@H](CCCCN)C(=O)N[C@H](CCCCN)C(=O)N[C@H](CC(C)C)C(=O)N[C@H](CC(C)C)C(=O)N[C@H](CCCNC(=N)N)C(N)=O)[C@H](C)CC,Escherichia coli,"broth microdilution checkerboard, item: gentamicin","ATCC 25922, LB medium",concentration not given,,MIC of antibiotic,0.39 µg/mL
O=C(NO)c1cccc2ccccc12,Lucilia cuprina,larval weight gain,"LS strain, larvae on impregnated cotton wool",24 h,,IC50,778 µg
COc1ccc(-n2c(=O)c(C(=O)C3C(=O)CCCC3=O)nc3c(C)cccc32)cc1,Monochoria vaginalis,"herbicidal activity, paddy pot test, visual rating",,28 days,,ED90,6.3 g a.i./10 a
C[OH+][Cu-2]12[O]C(c3cn(-c4ccccc4)nc3-c3ccc(F)cc3)=N[N+]1=C(C)c1c(cc(C)oc1=O)[O]2 (centres unmarked),Plasmodium falciparum,,3D7,"12.5 µg/mL, 72 h",,parasitaemia suppression,98%
Fc1ccc2c(c1)c1nc3ccc(Br)cc3c-1cn2Cc1cn(-c2ccccc2I)nn1,Giardia duodenalis,"UHPLC-Q-TOF-MS, item: PS(P-20:0/22:6)",trophozoites,"IC50, 0.2083 h",relative to: 0.25% DMSO,fold change,-64.8
CN1C[C@H](c2cccc(C(F)(F)F)c2)[C@@H](C(=O)Nc2ccccc2F)C1=O,Arabidopsis thaliana,,,"5 µM, added: IMP",,growth inhibition reversal,no effect
CC[C@H](C)[C@H](NC(=O)[C@@H](NC(=O)[C@H](Cc1ccc(O)cc1)NC(=O)[C@H](CCCCN)NC(=O)[C@H](CCCCN)NC(=O)[C@H](CC(C)C)NC(=O)[C@H](CC(=O)O)NC(=O)[C@H](Cc1ccc(O)cc1)NC(=O)[C@H](CCC(N)=O)NC(=O)[C@H](CCCCN)NC(=O)[C@@H](NC(=O)[C@H](Cc1ccccc1)NC(=O)[C@H](CCCCN)NC(=O)[C@H](CCCCN)NC(=O)[C@H](Cc1c[nH]c2ccccc12)NC(=O)[C@H](CCCCN)NC(=O)[C@H](CCSC)NC(=O)[C@H](CCCNC(=N)N)NC(=O)[C@H](CCCNC(=N)N)NC(=O)[C@H](CC(N)=O)NC(=O)[C@H](CCC(N)=O)NC(=O)[C@H](Cc1ccccc1)NC(=O)[C@H](Cc1c[nH]c2ccccc12)NC(=O)[C@@H](NC(=O)[C@H](CCCCN)NC(=O)[C@@H](NC(=O)[C@H](CCC(N)=O)NC(=O)[C@@H](N)CCCNC(=N)N)[C@@H](C)CC)[C@@H](C)CC)[C@@H](C)CC)[C@@H](C)CC)C(=O)O,Plasmodium falciparum,,,50 µM,,time to TUNEL positivity,4 h
Nc1ccn(C[C@@H](CO)OCP(=O)(O)OCCCS(=O)(=O)CCCCCCCCCCC2CCC2)c(=O)n1,human adenovirus 5,cytopathic effect,Adenoid 75,,relative to: CC50 over EC50,selectivity index,83
